Experimental data of several laboratories.
± marks the error that the study gave. Non-standard residues stand in square brackets, D forms with d. No end group written: not given here. *: point of attachment.
PIM1: Serine/threonine-protein kinase pim-1 (PIM1, Homo sapiens, UniProt P11309)
Sequence of UniProt P11309 (whole entry, looked up): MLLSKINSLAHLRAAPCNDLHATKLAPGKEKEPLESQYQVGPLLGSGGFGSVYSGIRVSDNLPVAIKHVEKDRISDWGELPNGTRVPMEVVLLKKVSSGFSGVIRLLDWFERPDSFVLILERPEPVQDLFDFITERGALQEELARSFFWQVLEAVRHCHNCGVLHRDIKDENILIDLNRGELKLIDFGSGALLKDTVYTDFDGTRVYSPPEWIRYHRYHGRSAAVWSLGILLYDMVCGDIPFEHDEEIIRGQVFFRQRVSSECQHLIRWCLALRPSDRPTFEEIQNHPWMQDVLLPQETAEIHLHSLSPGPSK
ALPI: Intestinal-type alkaline phosphatase (ALPI, Bos taurus, UniProt P19111)
Sequence of UniProt P19111 (whole entry, looked up): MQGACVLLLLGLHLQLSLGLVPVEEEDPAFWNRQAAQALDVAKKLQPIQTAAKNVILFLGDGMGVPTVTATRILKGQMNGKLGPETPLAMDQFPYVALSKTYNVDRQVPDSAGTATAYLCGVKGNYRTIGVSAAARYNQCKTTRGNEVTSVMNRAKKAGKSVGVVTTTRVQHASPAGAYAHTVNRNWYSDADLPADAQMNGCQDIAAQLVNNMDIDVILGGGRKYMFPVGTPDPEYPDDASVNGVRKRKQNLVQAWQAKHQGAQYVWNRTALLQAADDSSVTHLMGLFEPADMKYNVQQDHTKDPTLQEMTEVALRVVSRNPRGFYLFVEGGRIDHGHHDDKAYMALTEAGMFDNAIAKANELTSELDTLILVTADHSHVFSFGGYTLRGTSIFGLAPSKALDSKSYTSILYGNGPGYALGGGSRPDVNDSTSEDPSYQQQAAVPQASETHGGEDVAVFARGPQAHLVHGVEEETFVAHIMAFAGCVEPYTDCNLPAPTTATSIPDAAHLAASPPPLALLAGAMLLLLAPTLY
CTDNEP1: CTD nuclear envelope phosphatase 1 (CTDNEP1, Homo sapiens, UniProt O95476)
Sequence of UniProt O95476 (whole entry, looked up): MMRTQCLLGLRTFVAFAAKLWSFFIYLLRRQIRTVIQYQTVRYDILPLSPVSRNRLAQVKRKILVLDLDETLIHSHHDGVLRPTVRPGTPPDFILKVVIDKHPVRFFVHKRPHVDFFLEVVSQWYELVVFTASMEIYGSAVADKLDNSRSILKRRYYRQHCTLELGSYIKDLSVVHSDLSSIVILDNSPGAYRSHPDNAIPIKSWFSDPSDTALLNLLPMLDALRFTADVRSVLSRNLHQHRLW
B1: UGT1A9 (Homo sapiens, UniProt O60656); chain GKLLVVPMDGSHWFTMRSVVEKLILRGHEVVVVMPEVSWQLGRSLNCTVKTYSTSYTLEDLDREFKAFAHAQWKAQVRSIYSLLMGSYNDIFDLFFSNCRSLFKDKKLVEYLKESSFDAVFLDPFDNCGLIVAKYFSLPSVVFARGILCHYLEEGAQCPAPLSYVPRILLGFSDAMTFKERVRNHIMHLEEHLLCHRFFKNALEIASEILQTPVTEYDLYSHTSIWLLRTDFVLDYPKPVMPNMIFIGGINCHQGKPLPMEFEAYINASGEHGIVVFSLGSMVSEIPEKKAMAIADALGKIPQTVLWRYTGTRPSNLANNTILVKWLPQNDLLGHPMTRAFITHAGSHGVYESICNGVPMVMMPLFGDQMDNAKRMETKGAGVTLNVLEMTSEDLENALKAVINDKSYKENIMRLSSLHKDRPVEPLDLAVFWVEFVMRHKGAPHLRPAAHDLTWYQYHSLDVIGFLLAVVLTVAFITFKCCAYGYRKCLGKKGRVKKAHKSKTH
Sequence of UniProt O95497 (whole entry, unmodified, looked up): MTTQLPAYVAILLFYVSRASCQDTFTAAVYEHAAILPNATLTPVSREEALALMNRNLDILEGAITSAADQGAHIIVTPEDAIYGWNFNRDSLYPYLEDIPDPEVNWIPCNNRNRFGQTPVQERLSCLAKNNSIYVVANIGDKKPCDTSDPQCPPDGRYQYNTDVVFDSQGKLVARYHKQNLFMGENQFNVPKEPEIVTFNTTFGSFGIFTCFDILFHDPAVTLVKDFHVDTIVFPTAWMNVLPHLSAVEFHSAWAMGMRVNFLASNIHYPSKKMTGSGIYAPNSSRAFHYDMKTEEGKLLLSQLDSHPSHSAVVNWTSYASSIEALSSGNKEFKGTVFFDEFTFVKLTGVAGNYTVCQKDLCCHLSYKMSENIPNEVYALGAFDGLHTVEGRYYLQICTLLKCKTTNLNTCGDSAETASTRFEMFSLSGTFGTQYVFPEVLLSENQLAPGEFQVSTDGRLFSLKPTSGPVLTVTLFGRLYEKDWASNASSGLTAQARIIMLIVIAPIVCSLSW
Sequence of UniProt P00968 (whole entry, looked up): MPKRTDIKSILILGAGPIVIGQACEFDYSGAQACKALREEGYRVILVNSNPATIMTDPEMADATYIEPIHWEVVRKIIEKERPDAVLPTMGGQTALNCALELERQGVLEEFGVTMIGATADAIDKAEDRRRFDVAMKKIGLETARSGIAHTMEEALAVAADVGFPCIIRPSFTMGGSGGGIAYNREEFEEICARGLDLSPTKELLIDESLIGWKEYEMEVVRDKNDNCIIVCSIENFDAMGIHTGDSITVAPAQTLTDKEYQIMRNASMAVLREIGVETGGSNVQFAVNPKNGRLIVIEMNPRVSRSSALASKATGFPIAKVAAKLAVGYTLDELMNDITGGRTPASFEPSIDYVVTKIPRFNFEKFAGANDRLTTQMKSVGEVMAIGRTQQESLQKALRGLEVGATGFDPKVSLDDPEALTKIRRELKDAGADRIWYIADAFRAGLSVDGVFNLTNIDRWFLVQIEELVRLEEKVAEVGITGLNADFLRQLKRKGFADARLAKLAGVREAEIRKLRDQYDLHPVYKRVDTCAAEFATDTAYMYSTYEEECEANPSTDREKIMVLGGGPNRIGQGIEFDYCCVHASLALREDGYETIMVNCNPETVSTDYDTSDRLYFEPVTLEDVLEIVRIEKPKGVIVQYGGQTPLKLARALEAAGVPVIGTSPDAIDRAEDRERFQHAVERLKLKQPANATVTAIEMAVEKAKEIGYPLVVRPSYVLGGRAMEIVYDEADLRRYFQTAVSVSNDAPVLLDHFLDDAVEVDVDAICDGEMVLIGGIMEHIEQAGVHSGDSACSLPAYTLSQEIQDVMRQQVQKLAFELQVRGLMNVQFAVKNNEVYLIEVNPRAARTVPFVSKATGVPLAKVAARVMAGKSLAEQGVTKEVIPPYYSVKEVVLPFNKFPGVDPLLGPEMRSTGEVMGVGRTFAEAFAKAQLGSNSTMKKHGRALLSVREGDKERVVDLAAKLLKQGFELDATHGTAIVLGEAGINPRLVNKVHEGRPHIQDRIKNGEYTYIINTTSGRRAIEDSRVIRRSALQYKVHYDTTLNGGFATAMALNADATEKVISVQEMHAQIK

Molecule	tested on	test	system	setting	Km
RYRHPTPMYY	PIM1	substrate, coupled enzyme	peptide	pH 7.4, room temperature, with: 1 mM ATP, 20 mM MgCl2	200 ± 26 µM
CC(C)(CO)[C@@H](O)C(=O)NCCC(=O)NCCS	Pantetheinase (VNN1, Homo sapiens, UniProt O95497)	hydrolysis, substrate, item: pantothenic acid		15 min, 37 °C	74.1 ± 41.5 µM
O=[N+]([O-])c1ccc(OP(=O)(O)O)cc1	Trypanosoma evansi protein-tyrosine phosphatase			37 °C, with: pNPP substrate	3440 µM
[Na+].[Na+].[Na+].[O]=[V]([O-])([O-])[O-]	ALPI			0.084 µM, with: DiFMUP substrate	0.17 ± 0.02 µM
Nc1ncnc2c1ncn2[C@@H]1O[C@H](COP(=O)(O)OP(=O)(O)O)[C@@H](O)[C@H]1O	carB, nucleotide binding sites (Escherichia coli, UniProt P00968)	ATP synthesis, substrate, coupled enzyme		pH 7.6, with: 1.0 mM carbamoyl phosphate, 10 mM ornithine	130 ± 30 µM
Nc1ncnc2c1ncn2[C@@H]1O[C@H](COP(=O)(O)OP(=O)(O)OP(=O)(O)O)[C@@H](O)[C@H]1O	ALPI			pH 8	0.9 ± 0.2 µM
CCCCCCCCCC(=O)O	Marasmius rotula unspecific peroxygenase	substrate, GC-MS		with: H2O2	703 ± 549 µM
PIL[pS]EGASR (phospho-Ser4; pS = N[C@@H](COP(=O)(O)O)C(=O)O)	CTDNEP1	substrate, MESG-coupled phosphate release		25 °C	260 ± 50 µM
CC(C)C[C@H](N)C(=O)Nc1ccc2ccccc2c1	cathepsin H (Bubalus bubalis lung)	substrate, 2-naphthylamine release		pH 6.5, 37 °C	22 µM
DNMNT[pS]EDE (phospho-Ser6; pS = N[C@@H](COP(=O)(O)O)C(=O)O)	CTDNEP1	substrate, MESG-coupled phosphate release		25 °C	~15000 µM
C[C@H](N)C(=O)O	ALAS/AONS fusion (mouse, E. coli)	substrate, coupled spectrophotometric		pH 7.5, 30 °C, AONS site, with: pimeloyl-CoA	250 ± 50 µM
Ac-RYRHPTGMYY-NH2 (N-acetyl, C-amide)	PIM1	substrate, coupled enzyme	peptide	pH 7.4, room temperature, with: 1 mM ATP, 20 mM MgCl2	16 ± 2 µM
B1 (UGT1A9)	Oc1ccc(F)cc1	steady-state kinetics		pH 7.4, 37 °C	112 µM
CC(=O)N[C@H]1[C@@H](OP(=O)(O)OP(=O)(O)OC[C@H]2O[C@@H](n3ccc(=O)[nH]c3=O)[C@H](O)[C@@H]2O)O[C@H](CO)[C@@H](O)[C@@H]1O	heparosan synthase PmHS-G, Pasteurella multocida	GlcNAc-transferase activity, substrate		pH 7.2, 30 °C, with: UDP-[3H]GlcA 1 mM, 12.5-kDa heparosan acceptor	~110 µM
O=C(O)CCS	Azotobacter vinelandii MDO H157N	substrate		37 °C, with: O2	12 ± 2 µM
Cbz-Gly-Pro-pNA (N-Cbz, C-pNA; Cbz = O=C(OCc1ccccc1)*; pNA = O=[N+]([O-])c1ccc(N*)cc1)	Aeromonas punctata prolyl endopeptidase	substrate		pH 8, 34 °C	810 µM
O=[N+]([O-])c1ccccc1O[C@@H]1O[C@H](CO)[C@H](O)[C@H](O)[C@H]1O	beta-D-galactosidase (Paenibacillus sp. 3179)	substrate		pH 7.4, 50 °C, rough estimate, not saturated	570 ± 120 µM
RYRDPTGMYY	PIM1	substrate, coupled enzyme	peptide	pH 7.4, room temperature, with: 1 mM ATP, 20 mM MgCl2	1300 ± 53 µM
C/C1=C2/N[C@H]([C@H](CC(N)=O)[C@@]2(C)CCC(=O)NC[C@@H](C)OP(=O)(O)O[C@H]2[C@@H](O)[C@@H](n3cnc4cc(C)c(C)cc43)O[C@@H]2CO)[C@]2(C)N=C(/C(C)=C3N=C(/C=C4N=C1[C@@H](CCC(N)=O)C\4(C)C)[C@@H](CCC(N)=O)[C@]\3(C)CC(N)=O)[C@@H](CCC(N)=O)[C@]2(C)CC(N)=O.[Co]	cobA (Limosilactobacillus reuteri, UniProt Q50EJ2, F112A)	enzyme activity, substrate		anoxic, Ti(III) citrate reduced, with: ATP	1.9 ± 0.5 µM

Repeated from above:
Molecule	tested on	test	system	setting	Km
CC(C)C[C@H](N)C(=O)Nc1ccc2ccccc2c1	cathepsin H (Bubalus bubalis lung)	substrate, 2-naphthylamine release		pH 6.5, 37 °C	22 µM
